Assay results of several laboratories.
Every numbered part comes from another study and shows a few of its results, in no order. Changes are numbered by the printed parent chain.

Study 1 — target: CCNF, cyclin fold, Cln2 fusion (human); method: yeast growth competition, sequencing; matrix: yeast; setting: strong parent motif; baseline: not given; reading: higher = stronger binding
Starting sequence: E2F1 docking peptide (human); PPVKRRLDLETDH
| Change | normalised enrichment score |
| --- | --- |
| R6V | 1.6 |
| E10H | 6.26 |
| P1G | 4.81 |
| R6H | 3.43 |
| T11R | 6.42 |
| D8P | 3.04 |
| R5N | 0.558 |
| P1Y | 8.07 |
| T11V | 6.46 |
| K4Y | 3.23 |
| P2V | 4.85 |
| T11M | 6.98 |
| V3M | 2.11 |

Study 2 — method: DHFR PCA, deep sequencing; matrix: yeast; added: (+)-ABA 0.032 µM; baseline: wild-type fitted maximum; reading: higher = stronger binding
Target: ABI1, truncated, D143A, DHFR fusion (Arabidopsis thaliana)
Setting: methotrexate growth selection, single substitutions
Starting sequence: PYL1, truncated, DHFR fusion (Arabidopsis thaliana); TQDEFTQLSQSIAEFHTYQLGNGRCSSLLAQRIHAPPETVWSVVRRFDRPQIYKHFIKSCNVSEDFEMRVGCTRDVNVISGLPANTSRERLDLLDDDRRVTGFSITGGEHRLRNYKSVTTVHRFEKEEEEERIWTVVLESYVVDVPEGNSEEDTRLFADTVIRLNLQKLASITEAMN; partner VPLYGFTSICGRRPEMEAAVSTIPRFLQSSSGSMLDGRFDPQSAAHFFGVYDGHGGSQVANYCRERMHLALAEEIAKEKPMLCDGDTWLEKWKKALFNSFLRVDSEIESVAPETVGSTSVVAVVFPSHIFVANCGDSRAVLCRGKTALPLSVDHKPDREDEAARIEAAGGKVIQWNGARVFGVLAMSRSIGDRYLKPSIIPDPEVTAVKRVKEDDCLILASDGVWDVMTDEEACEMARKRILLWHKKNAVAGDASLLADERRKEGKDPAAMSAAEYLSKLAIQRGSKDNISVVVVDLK
| Change | relative binding score [%] |
| --- | --- |
| Y141L | -2.54 |
| A158M | 13.9 |
| R49M | 17.4 |
| V76H | -3.27 |
| V137L | 1.1 |
| C60Q | 1.32 |
| G21H | 9.19 |
| S42G | 18.4 |
| T173F | -4.86 |
| V44Q | -5.5 |
| Q31F | -1.48 |
| R69Y | 1.76 |
| E139A | 7.68 |
| T106N | -4.79 |
| R90D | 4.05 |
| Y18F | -1.67 |
| R46S | -1.92 |
| G81D | 2.38 |
| E4T | 8.49 |
| S59A | 11.5 |
| S150Q | 4.47 |
| E152C | 1.92 |

Study 3 — method: RNA Bind-n-Seq; form: RNA; matrix: in vitro; tested at: not given; baseline: input RNA pool; reading: higher = stronger binding
Target: RING finger protein unkempt homolog, zinc fingers 1-6, GST-SBP tag (UNK, Homo sapiens, UniProt Q9C0B0, residues 30-357)
Chain of UniProt Q9C0B0 (30-357, looked up): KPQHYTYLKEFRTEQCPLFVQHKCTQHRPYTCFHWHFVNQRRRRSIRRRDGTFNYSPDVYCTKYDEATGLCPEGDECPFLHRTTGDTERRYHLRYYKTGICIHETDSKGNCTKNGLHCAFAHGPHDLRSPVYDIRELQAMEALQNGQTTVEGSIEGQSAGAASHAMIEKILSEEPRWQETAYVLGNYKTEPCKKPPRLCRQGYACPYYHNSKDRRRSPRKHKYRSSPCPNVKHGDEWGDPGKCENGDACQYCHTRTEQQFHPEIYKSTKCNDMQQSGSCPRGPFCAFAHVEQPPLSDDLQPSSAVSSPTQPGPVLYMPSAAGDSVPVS
Setting: RNA with constant flanks, human and mouse sites, ends assumed
All sequences stand within: GGGAGUUCUACAGUCCGACGAUC … CAACAGAGGAUUGAGCAUCA
| Oligonucleotide | bound/input enrichment |
| --- | --- |
| GAUAUGAAACAUUGGCCCUUUAUGGUGGUGAAUGAUGCUGGCAGGCCCAAGGUCCAAGUAGAAUACAAGGGAGAGACCAAAAGCUUCUAUCCAGAGGAGGUGUCUUCUAUGGUUCUGACA | 0.288 ratio |
| CUAUGUAAGUUUCAUUUAGAAAGACAUGCAUUUAUAUUUUGUUUCUGUAAUAUUCUACUGUAGGUGAAAUCUUUUCAAAAAUCAAGAGACUGGGUAGAUAAGAAUAUAUGAAUGACUAAU | 1.35 ratio |
| GUGACCAAUUUGUUGCAGUUACCUCAGUACUUUGAUUUGGAGAUAUACACCACUGGACGAUUAGAAAAGCAUUUGGAUGCCUUAUUGCGCCAGAUCCGAAAUAUUGUAGAGAAGCACACA | 0.534 ratio |
| CCCACGCCCUCCCUCUCCCAGGCCCGAGAUGUGACCCACCAGUGCCUUCUGUCUGCUCGUUAGCUUUAAUCAAUCAUGCCCUGCCUUGUCCCUCUCACUCCCCAGCCCCACCCCUAAGUG | 5.98 ratio |
| GAUGGACAAUUCAAAGAUAUCAGCCUAAGUGAAUACAAAGGAAAAUAUGUUGUGUUCUUCUUUUACCCUCUUGACUUUACUUUUGUGUGUCCCACGGAGAUCAUUGCUUUCAGUGAUAGA | 0.264 ratio |
| CUCAACCAUCCAAAUGUAAUUAAAUACUAUGCAUCAUUCAUUGAGGAUAAUGAGCUGAACAUAGUUUUGGAGUUAGCAGAUGCUGGUGACCUCUCCAGAAUGAUAAAGCACUUUAAGAAA | 0.69 ratio |
| GUGGCUAAGAUUCCCGCCGCUGCUGCCUCCCGGUGCUUCCCGGGGUGAUCUGUCACCAGGAGCAGUGUCGAAGACGCCGCUCACGGUGGGAACAUGAAUCUCCUACCUAAAAGCUCCAAG | 0.104 ratio |
| GUCAGCCAAAGCUGGCCCCUGAACCACUGUGUGCCCAUUUCCUAGGGAAGGGGAAGGAGAAUAAACAGAAUAUUUAUUACAAAUGUUAGAAUAUAUUUCUUAUACUAGGAAUCUCAUUUG | 0.862 ratio |
| CUCAGGAUGUCUUCAUCACAUUUUGCCAGUCGACACAGGAAGGAUAUAAGUACUGAAAUGAUUAGAACUAAAAUUGCUCAUAGGAAAUCACUGUCUCAGAAAGAAAAUAGACAUAAGGAA | 3.14 ratio |
| GAAUGGAAGAAUAUGGGUUAAGGCAAAAACCAUCCAGCAGACUUUAAUUUUGGCAAACAUUUUAGAAGCUUGUGAACACAUGACGUCAGAUCAAAGAAAACAGAUCUUCUCCAGAUUGGC | 0.286 ratio |
| CAAACACCCUUUGUAUUCCAAAAUAGGGUCUCAAACAUUUUGUAAUUUUCAUUUAAAUUGUUAGGAGGCUUGGAGCUAUUAGUUAAUCUAUCUUCCAAUACACUGUUUAAUAUAGCACUG | 1.44 ratio |

Study 4 — method: RNA Bind-n-Seq; form: RNA; matrix: in vitro; tested at: 200 nM; setting: whole 134-nt RNA, ends assumed; added: 150 mM KCl; baseline: input library; reading: higher = stronger binding
Target: Ras GTPase-activating protein-binding protein 1, full length (G3BP1, Homo sapiens, UniProt Q13283)
Chain of UniProt Q13283 (whole entry, looked up): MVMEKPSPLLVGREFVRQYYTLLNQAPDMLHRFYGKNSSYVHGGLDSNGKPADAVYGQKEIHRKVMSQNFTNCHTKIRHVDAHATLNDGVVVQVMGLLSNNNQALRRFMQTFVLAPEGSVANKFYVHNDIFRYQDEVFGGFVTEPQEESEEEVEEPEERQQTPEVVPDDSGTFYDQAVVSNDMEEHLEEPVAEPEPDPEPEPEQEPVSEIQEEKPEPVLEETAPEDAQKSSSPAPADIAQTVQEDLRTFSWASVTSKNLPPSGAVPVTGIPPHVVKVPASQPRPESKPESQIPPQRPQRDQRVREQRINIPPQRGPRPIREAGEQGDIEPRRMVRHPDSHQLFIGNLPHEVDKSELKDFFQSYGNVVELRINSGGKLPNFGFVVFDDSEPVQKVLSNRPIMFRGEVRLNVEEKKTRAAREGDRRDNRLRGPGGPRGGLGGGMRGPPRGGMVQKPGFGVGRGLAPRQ
All sequences stand within: GGGAGUUCUACAGUCCGACGAUC … UGGAAUUCUCGGGUGUCAAGG
| Oligonucleotide | log2 enrichment |
| --- | --- |
| AGUCCUGUGCUACACAUCGUAUGUACCGAAUCGGGUGGGAAAAAGGGAAAAAAAGGGAAAGUAUUAUGUUACGCCGUUCGGAUCUGCACU | -0.209 |
| CACAGCCAACACGCACCCACACAGACACAGAGGGAAGGGGUUGGGAUGGGGACAGGGUGCACAGCAGGGCGGGGUAGGACCCCAGCCCCU | 1.87 |
| UAACUUUAGAGGAGGAUCCGAUGGAUAUGGCAGUGGACGUGGAUUUGGGGAUGGCUAUAAUGGGUAUGGAGGAGGACCUGGAGGUGGCAA | 0.438 |
| GUCCUGUGCUACACAUCGUAUGUACCGAAUCGGGGAAAAAGGGGAGGGGUUUUUGGGGAAAGUAUUAUGUUACGCCGUUCGGAUCUGCAC | 0.205 |
| CUGUGCUACACAUCGUAUGUACCGAAUCGGGGUUUUUUUGGGGAAAGGGGAAAAAAAGGGGAAAGUAUUAUGUUACGCCGUUCGGAUCUG | -0.349 |
| UGGCCCUGGUGGCAUGCGGGGAGGAAGAGGUGGCCUCAUGGAUCGUGGUGGUCCCGGUGGAAUAUUCAGAGGUGGCCGUGGUGGAGACAG | 0.203 |
| AAGUCCUGUGCUACACAUCGUAUGUACCGAAUCGGGGCCCGGGGCCCGGGCCCGGGGAAAGUAUUAUGUUACGCCGUUCGGAUCUGCACU | -1.35 |
| UAACUUUAGAGGAGGAUCUGAUGGAUAUGGCAGUGGACGUGGAUUUGGGGAUGGCUAUAAUGGGUAUGGAGGAGGACCUGGAGGUGGCAU | 0.272 |
| GUCCUGUGCUACACAUCGUAUGUACCGAAUCGGGGAAAGGGGAAAGGGGAAAAAGGGGAAAGUAUUAUGUUACGCCGUUCGGAUCUGCAC | 0.381 |
| CAAGUCCUGUGCUACACAUCGUAUGUACCGAAUCGGGGAAAGGGGUGGGGUGGGGAAAGUAUUAUGUUACGCCGUUCGGAUCUGCACUUC | 1.34 |
| UCCUGUGCUACACAUCGUAUGUACCGAAUCGGGGUGGGGAAAAAAAGGGGAAAAAGGGGAAAGUAUUAUGUUACGCCGUUCGGAUCUGCA | 0.682 |
| UCAUGUAUAGACAACGCCAUUAUUGACGAGAUCACUCCCAAGCGGAUUGGAGAUUGUCCCAAUAUUUAGACCUAUAGCAAGGCCUUGGGA | 0.794 |
| CCUGUGCUACACAUCGUAUGUACCGAAUCGGGCCCCCCGGGGCCCCCCGGGCCCCCCGGGAAAGUAUUAUGUUACGCCGUUCGGAUCUGC | -0.7 |
| CACAGACAACACGCACCCACACAGACACAGAGGGAAGGGGUUGGGAUGGGGACAGAAAGCACAGCAGGGCGGGGUAGGACCCCAGCCCCU | 1.81 |

Excerpt of the above (study 3):
| Oligonucleotide | bound/input enrichment |
| --- | --- |
| CUAUGUAAGUUUCAUUUAGAAAGACAUGCAUUUAUAUUUUGUUUCUGUAAUAUUCUACUGUAGGUGAAAUCUUUUCAAAAAUCAAGAGACUGGGUAGAUAAGAAUAUAUGAAUGACUAAU | 1.35 ratio |
| GUGACCAAUUUGUUGCAGUUACCUCAGUACUUUGAUUUGGAGAUAUACACCACUGGACGAUUAGAAAAGCAUUUGGAUGCCUUAUUGCGCCAGAUCCGAAAUAUUGUAGAGAAGCACACA | 0.534 ratio |
| CCCACGCCCUCCCUCUCCCAGGCCCGAGAUGUGACCCACCAGUGCCUUCUGUCUGCUCGUUAGCUUUAAUCAAUCAUGCCCUGCCUUGUCCCUCUCACUCCCCAGCCCCACCCCUAAGUG | 5.98 ratio |
| GAUGGACAAUUCAAAGAUAUCAGCCUAAGUGAAUACAAAGGAAAAUAUGUUGUGUUCUUCUUUUACCCUCUUGACUUUACUUUUGUGUGUCCCACGGAGAUCAUUGCUUUCAGUGAUAGA | 0.264 ratio |
